Results gathered from unrelated publications.
Lines come from different studies, so protocols differ. “And” joins repeats or separate records; there may be more than shown. ± gives the spread as reported.

Structure (SMILES)	cell line	test	system	conditions	scale	measurement	value
CCCCCCCCC[P+](c1ccccc1)(c1ccccc1)c1ccccc1	T47D	cell growth or viability, MTT		72 h		GI50	0.023 µM
CC(C)C[C@H](NC(=O)[C@H](C)N)C(=O)N[C@@H](CC(C)C)C(=O)N[C@@H](C)C(=O)N[C@@H](CC(N)=O)C(=O)N[C@@H](Cc1c[nH]cn1)C(=O)N[C@@H](CCC(=O)O)C(=O)N[C@@H](CCC(=O)O)C(=O)N[C@@H](CC(C)C)C(=O)N[C@@H](Cc1ccccc1)C(=O)N[C@@H](CCC(N)=O)C(=O)N[C@H](C(=O)NCC(=O)NCC(=O)NCC(=O)N[C@@H](CO)C(=O)N[C@@H](CSC1CC(=O)N(CCNC(=O)CCCCCN2C(=CC=C3CCCC(C=CC4=[N+](CCCCS(=O)(=O)[O-])c5ccc(S(=O)(=O)O)cc5C4(C)C)=C3Oc3ccc(S(=O)(=O)O)cc3)C(C)(C)c3cc(S(=O)(=O)O)ccc32)C1=O)C(=O)O)[C@@H](C)O (some centres unmarked)	Hep3B	co-localization with anti-GPC3 antibody, confocal microscopy				Pearson correlation coefficient	0.71
C[C@@H](O)[C@@H]1NC(=O)[C@H](CCCCN)NC(=O)CCCC(=O)NCCCC[C@@H](C(=O)NCC(=O)NCC(=O)N[C@@H](Cc2ccc(O)cc2)C(=O)NCC(=O)N[C@@H](CCCNC(=N)N)C(=O)N[C@@H](CCCCN)C(=O)N[C@@H](CCCCN)C(=O)N[C@@H](CCCNC(=N)N)C(=O)N[C@@H](CCCNC(=N)N)C(=O)N[C@@H](CCC(N)=O)C(=O)N[C@@H](CCCNC(=N)N)C(=O)N[C@@H](CCCNC(=N)N)C(=O)N[C@@H](CCCNC(=N)N)C(N)=O)NC(=O)[C@H](CCCCN)NC(=O)[C@H](CCC(=O)O)NC(=O)[C@H](CC(=O)O)NC(=O)CNC1=O	Huh-7	apoptosis, flow cytometry		40 µM, 16 h		caspase-3 positive cells	3.16%
COc1cc(C)c(OC)c2c1OCO2	DU-145	cell growth or viability, MTT		72 h		GI50	> 250 µM
CC[C@H](C)[C@H](NC(=O)[C@H](CC(C)C)NC(=O)[C@@H](NC(=O)[C@@H](NC(=O)[C@H](CCSC)NC(C)=O)[C@@H](C)CC)[C@@H](C)CC)C(=O)N[C@H](C(=O)N[C@@H](CO)C(=O)N[C@@H](Cc1ccccc1)C(=O)N1CCC[C@H]1C(=O)N[C@@H](CCCCN)C(=O)N[C@@H](Cc1c[nH]cn1)C(=O)N[C@@H](CCCCN)C(=O)N[C@@H](CC(=O)O)C(=O)N[C@@H](Cc1c[nH]c2ccccc12)C(=O)N[C@@H](CCCCN)C(=O)N[C@H](C(=O)N[C@H](C(=O)N[C@@H](CC(C)C)C(=O)N[C@H](C(=O)N[C@@H](CCCCN)C(N)=O)C(C)C)[C@@H](C)CC)C(C)C)[C@@H](C)CC	SLE patient PBMCs			dose not given		IL-6 production	inhibited
CC(C)CC(O)(CC(C)C)c1cn(C(=O)N2CCCC2)nn1	mouse T-cells	SILAC proteomics, item: UQCRH		1 nM, 6 h, unit not given	reference: DMSO	protein level	0.9 ± 0.26
CCCc1cc2c(c(OC)c1OC)OCO2	T47D	cell growth or viability		72 h		GI50	> 250 µM
CC[C@H](C)[C@H](NC(=O)[C@H](CCC(=O)O)NC(=O)CNC(=O)[C@@H](NC(=O)[C@H](CC(C)C)NC(=O)[C@H](CC(C)C)NC(=O)[C@H](CC(C)C)NC(=O)[C@H](CC(C)C)NC(=O)[C@H](CS)NC(=O)[C@H](CO)NC(=O)[C@H](Cc1ccccc1)NC(=O)CNC(=O)[C@H](CCCNC(=N)N)NC(=O)[C@@H]1CCCN1C(=O)[C@H](C)NC(=O)[C@H](CCSC)NC(=O)CNC(=O)CNC(=O)[C@H](Cc1ccccc1)NC(=O)[C@H](CCCCN)NC(=O)[C@H](Cc1c(C)cc(O)cc1C)NC(=O)[C@H](N)CCCNC(=N)N)[C@@H](C)O)C(=O)N[C@@H](CC(=O)O)C(=O)N[C@@H](CC(C)C)C(=O)N1CCC[C@H]1C(=O)N[C@H](C(=O)N[C@@H](CCCCN)C(=O)N[C@@H](CCCNC(=N)N)C(=O)N[C@@H](CCCNC(=N)N)C(=O)N[C@@H](C)C(N)=O)C(C)C	HT-22	western blot, item: MTCO1		10 µM, 24 h, together with: amyloid beta 42 2 µM	reference: HNG plus SS-31	protein level	111%
COc1c(C)cc2c(c1OC)OCO2	A-375	cell growth or viability, MTT		72 h		GI50	> 250 µM
COC[C@@H](NC(C)=O)C(=O)NCc1ccc(-c2cccc(I)c2)cc1	CAD	Na+ current, patch clamp		10 µM		V1/2 of fast inactivation	-76.5 ± 1.3 mV
COC[C@H](NC(C)=O)C(=O)NCc1ccccc1	CAD	sodium current slow inactivation, whole-cell patch clamp		100 µM, 8 s prepulse		fraction of available current	0.35 ± 0.03
C[P+](c1ccccc1)(c1ccccc1)c1ccccc1	T47D	cell growth or viability		72 h		GI50	6.99 µM
CSCC[C@H](NC(=O)[C@H](CC(C)C)NC(=O)[C@H](Cc1c[nH]cn1)NC(=O)CNC(=O)[C@@H](NC(=O)[C@H](C)NC(=O)[C@H](Cc1c[nH]c2ccccc12)NC(=O)[C@H](CCC(N)=O)NC(=O)c1ccc(NC(=O)CNC(=O)CCCCCN2C(=CC=C3CCCC(C=CC4=[N+](CCCCS(=O)(=O)[O-])c5ccc(S(=O)(=O)O)cc5C4(C)C)=C3Oc3ccc(S(=O)(=O)O)cc3)C(C)(C)c3cc(S(=O)(=O)O)ccc32)cc1)C(C)C)C(N)=O	HCC1937	fluorescence microscopy		concentration not given		binding	no binding
C[C@@H](OC(C)(C)C)[C@H](NC(=O)OCc1ccccc1)C(=O)N[C@@H](CC1CCCCC1)C(=O)N[C@H](C=O)C[C@@H]1CCNC1=O	293T			1 µM, together with: antimycin A	reference: without compound	apoptosis	no effect
C[C@H](NC(=O)[C@H](CCCNC(=N)N)NC(=O)[C@H](CCC(=O)O)NC(=O)[C@H](CCCNC(=N)N)NC(=O)[C@H](CCCNC(=N)N)NC(=O)[C@@H](NC(=O)[C@H](CCCNC(=N)N)NC(=O)[C@H](C)NC(=O)[C@H](CCCNC(=N)N)NC(=O)[C@H](CCC(=O)O)NC(=O)[C@@H](N)CCCNC(=N)N)[C@@H](C)O)C(=O)N[C@@H](CCCNC(=N)N)C(=O)N[C@H](C(=O)N[C@@H](CCCNC(=N)N)C(=O)N[C@@H](CCC(=O)O)C(=O)N[C@@H](CCCNC(=N)N)C(=O)N[C@@H](C)C(=O)N[C@@H](CCCNC(=N)N)C(=O)N[C@H](C(=O)N[C@@H](CCCNC(=N)N)C(=O)O)[C@@H](C)O)[C@@H](C)O	A-375	western blot, item: VEGF165		25 µM		protein level	decreased
CN1C(=O)C2(Cc3ccc(CC45SSC(CO)(C(=O)N4C)N(C)C5=O)cc3)SSC1(CO)C(=O)N2C (racemic)	MCF7	microarray		600 nM, ≥2-fold change, together with: deferoxamine 300 µM	reference: deferoxamine alone	number of affected transcripts	403
CC[C@H](C)[C@H](NC(=O)[C@H](Cc1ccccc1)NC(=O)[C@H](CC(=O)O)NC(=O)[C@H](CCCCN)NC(=O)[C@H](C)NC(=O)[C@H](CCCCN)NC(=O)[C@H](CC(N)=O)NC(=O)[C@H](CC(C)C)NC(=O)[C@H](Cc1c[nH]c2ccccc12)NC(=O)[C@H](CCC(=O)O)NC(=O)[C@H](CCCCN)NC(=O)[C@@H](NC(=O)CNC(=O)[C@H](C)N)[C@@H](C)O)C(=O)N[C@@H](CCCCN)C(=O)N[C@@H](CCC(=O)O)C(=O)N[C@@H](CCCCN)C(=O)NCC(=O)N[C@@H](CC(C)C)C(=O)NCC(=O)N[C@@H](CCSC)C(=O)N[C@@H](CC(C)C)C(=O)N[C@@H](CCCNC(=N)N)C(=O)N[C@@H](C)C(=O)N[C@@H](C)C(=O)N[C@@H](C)C(=O)N[C@@H](CC(N)=O)C(=O)N[C@@H](C)C(=O)N[C@@H](C)C(=O)N[C@@H](CC(C)C)C(=O)N[C@@H](CC(N)=O)C(=O)O	F11 cells	intracellular calcium, FLIPR		0.1% BSA		EC50	12.1 µM and 12 to 25 µM
N=C(N)NCCC[C@H](N)C(=O)NCC(=O)N[C@@H](CC(=O)O)C(=O)O	NIH 3T3 fibroblasts		peptide-functionalised PEG-glass	concentration not given, 4 h		cell spreading area	2440 ± 984 µm²

Structure (SMILES)	cell line	test	system	conditions	scale	measurement	value
CC[C@@]1(O)C(=O)OCc2c1cc1n(c2=O)Cc2cc3cc(OC(=O)CCCC(=O)NCC(=O)N[C@@H](Cc4ccccc4)C(=O)N[C@@H](Cc4ccccc4)C(=O)N[C@@H](Cc4ccc(O)cc4)C(=O)NCCSSCCNC(=O)CCC(=O)N[C@@H](CCC(=O)O)C(=O)N[C@@H](CCCNC(=N)N)C(=O)NCC(=O)N[C@@H](CC(=O)O)C(=O)O)ccc3nc2-1	HepG2 spheroids			100 µM, 7 days	reference: initial	spheroid volume	~50%
CC[C@H](C)[C@H](NC(=O)[C@H](CC(N)=O)NC(=O)[C@H](CCCCN)NC(=O)[C@H](Cc1ccccc1)NC(=O)[C@H](Cc1ccccc1)NC(=O)[C@H](Cc1c[nH]cn1)NC(=O)[C@@H](NC(=O)[C@@H](NC(=O)[C@@H]1CCCN1C(=O)[C@@H](N)CC(N)=O)C(C)C)C(C)C)C(=O)N[C@H](C(=O)N[C@H](C(=O)N[C@@H](C)C(=O)O)[C@@H](C)O)C(C)C	T cell clone Ob.2G9	T cell proliferation, agonist, [3H]thymidine incorporation		72 h, peptide-pulsed APC, together with: EBV-transformed B cells DR2/DQ6 as APC		EC50	> 50 µM
Cc1cccc(O)c1C(=O)OCC1(O)C(Nc2ccc3c(c2)Cc2ccccc2-3)C(N)C(NC(=O)N(C)C)(C(C)O)C1(C)O (centres unmarked)	NCI-H322M	cell growth or viability, SRB				GI50	1.07 µM
COc1cc(C)c(OC)c(OC)c1OC	T47D	cell growth or viability, MTT		72 h		GI50	> 250 µM
CCOP(=O)(OCC)OCCCCOC(=O)CC1=C(C)C(=Cc2ccc([S+](C)[O-])cc2)c2ccc(F)cc21 (centres unmarked)	NSCLC lines A549, H23, H358	modified MTT		24 h	reference: IC50 sulindac over IC50 compound	potency enhancement	> 12 fold
CC/C=C\C/C=C\C/C=C\C/C=C\C/C=C\C/C=C\CCC(=O)Nc1ccn(C2OC(CO)C(O)C2(F)F)c(=O)n1 (centres unmarked)	NCI-H23	NCI60 screen				CC50	56.6 µM
CC[C@@H](C(=O)[C@@H](C)[C@@H](O)[C@H](C)[C@@H]1O[C@@H]([C@@H](CC)C(=O)O)CC[C@@H]1C)[C@H]1O[C@]2(C=C[C@H](NCc3ccc(Cl)cc3)[C@]3(CC[C@@](C)([C@H]4CC[C@](O)(CC)[C@H](C)O4)O3)O2)[C@H](C)C[C@@H]1C	HMLER CD24low/CD44high	cell viability, CellTiter-Blue		72 h	reference: IC50 HMLER CD24high/CD44low over CD24low/CD44high	selectivity ratio	11
CNC(=O)c1cc(Oc2ccc(NC(=O)c3ccc(-c4cccc(COC(=O)CCC(=O)OC5OC6OC7(C)CCC8C(C)CCC(C5C)C68OO7)c4)cn3)cc2)ccn1 (centres unmarked)	Huh-7	western blot		concentration not given, 48 h		Bcl-2 protein level	decreased
[Cl][Ag].[Se]=c1n(C2CCCCC2)ccn1C1CCCCC1	A2780 ADR	MTT			reference: A2780 ADR over A2780	resistance factor	1.1
COc1ccc2c(c1)C1CC(C)(N2)c2c(C)nc3ccc(OC)cc3c21 (centres unmarked)	Huh-7				reference: Huh-7 CC50 over INDO IC50	selectivity index	> 165
Cc1cc(C)c(N2CCN(c3c(C)cc(C)cc3C)C2=[Se])c(C)c1.[Cl][Au]	PSN1	cell growth or viability, MTT		72 h		IC50	2.8 µM
CN1c2ccc(OC(=O)Nc3ccncc3)cc2C2(C)CCOC12 (centres unmarked)	donor cells	Western blot, item: CD63, CD81, syntenin-1	extracellular vesicles	concentration not given	reference: DMSO	exosomal marker level	decreased
CCCCCCCCCCCCCCCC[P+](c1ccccc1)(c1ccccc1)c1ccccc1	DU-145	cell growth or viability, MTT		72 h		GI50	1.11 µM
CC[C@H](C)[C@H](NC(=O)[C@H](Cc1ccccc1)NC(=O)[C@H](CC(=O)O)NC(=O)[C@H](CCCCN)NC(=O)[C@H](C)NC(=O)[C@H](CCCCN)NC(=O)[C@H](CC(N)=O)NC(=O)[C@H](CC(C)C)NC(=O)[C@H](Cc1c[nH]c2ccccc12)NC(=O)[C@H](CCC(=O)O)NC(=O)[C@H](CCCCN)NC(=O)[C@@H](NC(=O)CNC(=O)[C@H](C)N)[C@@H](C)O)C(=O)N[C@@H](CCCCN)C(=O)N[C@@H](CCC(=O)O)C(=O)N[C@@H](CCCCN)C(=O)NCC(=O)N1CCC[C@H]1C(=O)NCC(=O)N[C@@H](CCSC)C(=O)N[C@@H](CC(C)C)C(=O)N[C@@H](CO)C(=O)N[C@@H](C)C(=O)N[C@@H](C)C(=O)N[C@@H](C)C(=O)N[C@@H](CC(N)=O)C(=O)N[C@@H](C)C(=O)N[C@@H](C)C(=O)N[C@@H](CC(C)C)C(=O)N[C@@H](CC(N)=O)C(=O)O	F11 cells	intracellular calcium, FLIPR		0.1% BSA		EC50	> 100 µM
C=C1C(=O)O[C@H]2[C@H]1CCC(COC(=O)c1ccc(F)cc1)=C1CC[C@@](C)(O)[C@@H]12	M9-ENL1 leukaemia cells	annexin V/7-AAD flow cytometry		24 h, 5% human plasma		CC50	4.8 µM
COc1cc(C)cc2c1OCO2	DU-145	cell growth or viability, MTT		72 h		GI50	> 250 µM
N=C(N)Nc1ccc(-c2nc3ccc(-c4ccc5nc(-c6ccc(NC(=N)N)cc6)[nH]c5c4)cc3[nH]2)cc1	sample A patient fibroblasts	RT-qPCR		concentration not given		DMPK mRNA level	no effect
